Measured values gathered from unrelated publications.
Each numbered part is a random draw from the data of one study; scales do not carry over between parts. Positions count from the first letter of the parent shown.

Set 1
Target: CCNA1, cyclin fold, Cln2 fusion (human)
Method: yeast growth competition, sequencing
Medium: yeast
Setting: weak parent motif
Baseline: not given
Direction: higher = stronger binding
Starting sequence: INSM1 docking peptide (human); PKAIRKLHFEDEV
For `E12A`, “normalised enrichment score” read 0.615.
`I4L` — result for “normalised enrichment score”: 1.32.
Under “normalised enrichment score”, `F9R` is recorded as 0.199.
`K6C`: “normalised enrichment score” 0.166.
`E12N`: “normalised enrichment score” 0.402.
Under “normalised enrichment score”, `I4K` is recorded as 1.76.
`K6L`: “normalised enrichment score” 0.197.
`R5P`: “normalised enrichment score” -0.143.
`E10M` — result for “normalised enrichment score”: 0.245.
`I4H`: “normalised enrichment score” 1.01.
For `E12C`, “normalised enrichment score” read 1.1.
For `R5I`, “normalised enrichment score” read -0.154.
`K2C` — result for “normalised enrichment score”: 0.696.
Under “normalised enrichment score”, `F9K` is recorded as -0.559.
`R5N` — result for “normalised enrichment score”: -0.363.
Under “normalised enrichment score”, `F9Y` is recorded as 0.307.

Set 2
Target: Histone acetyltransferase KAT6A, winged helix 1, GST fusion (KAT6A, Homo sapiens, UniProt Q92794, residues 1-85)
Method: protein binding microarray
Molecule type: double-stranded DNA, one strand shown
Medium: in vitro
Concentration: not given
Setting: 8-mer, flanks averaged, mean of 2 arrays, mostly near background
Baseline: not given
Direction: higher = stronger binding
Target sequence (chain): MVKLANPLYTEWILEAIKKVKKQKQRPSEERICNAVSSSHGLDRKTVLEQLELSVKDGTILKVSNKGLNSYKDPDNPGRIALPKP
For `GCGTCGTA`, the E-score was 0.321.
`AGCATTTG` gave an E-score of -0.238.
With `CAAAAATC` the E-score was -0.128.
For `CTGAGTGA`, the E-score was -0.0653.
The E-score of `ACTTAAGA` is reported as 0.0236.
With `AACTCACG` the E-score was -0.0605.
`CCAAATGC` has an E-score of -0.178.
For `ACGTATAG`, the E-score was -0.0407.
For `TGCCCGAA`, the E-score was -0.181.
`CTTCTGCA` gave an E-score of -0.0934.
With `CGAGTCTA` the E-score was -0.00738.
With `CTTTCTCA` the E-score was 0.0678.
With `ATACTAGA` the E-score was -0.137.
For `TATTAACA`, the E-score was -0.0255.
For `GATTCAAA`, the E-score was -0.263.
`AAAATTCC` has an E-score of -0.0284.

Set 3
Target: ABI1, truncated, D143A, DHFR fusion (Arabidopsis thaliana)
Method: DHFR PCA, deep sequencing
Medium: yeast
Setting: methotrexate growth selection, single substitutions
Together with: (+)-ABA 1.4 µM
Baseline: wild-type fitted maximum
Direction: higher = stronger binding
Starting sequence: PYL1, truncated, DHFR fusion (Arabidopsis thaliana); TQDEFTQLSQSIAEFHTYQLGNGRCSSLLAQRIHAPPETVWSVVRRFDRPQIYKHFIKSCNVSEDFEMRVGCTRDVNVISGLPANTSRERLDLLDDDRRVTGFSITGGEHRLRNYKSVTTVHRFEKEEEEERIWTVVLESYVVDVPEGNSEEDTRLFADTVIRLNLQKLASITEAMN; partner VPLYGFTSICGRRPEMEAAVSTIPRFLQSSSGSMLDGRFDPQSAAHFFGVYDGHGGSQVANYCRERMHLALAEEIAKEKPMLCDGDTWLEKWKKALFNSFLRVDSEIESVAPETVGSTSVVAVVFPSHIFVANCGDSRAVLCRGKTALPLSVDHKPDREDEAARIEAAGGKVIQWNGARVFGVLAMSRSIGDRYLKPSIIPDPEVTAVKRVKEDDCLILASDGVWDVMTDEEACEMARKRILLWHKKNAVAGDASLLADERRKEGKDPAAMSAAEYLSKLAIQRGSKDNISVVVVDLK
For `N165R`, “relative binding score” read 7.54%.
`L8D` — result for “relative binding score”: -22.9%.
Under “relative binding score”, `K116M` is recorded as 3.92%.
`S150D`: “relative binding score” 42.5%.
For `C25Y`, “relative binding score” read -7.35%.
For `I133D`, “relative binding score” read 80.9%.
`E130N`: “relative binding score” 56.6%.
For `L93K`, “relative binding score” read 23.9%.
`H122F` — result for “relative binding score”: 3.32%.
For `Q2G`, “relative binding score” read 38.1%.
`L91S`: “relative binding score” 11.9%.

Mixed results
`PhoQ, residues 284 288 289 292 302 303 GANMMA` has a fold induction of 4.06 (PhoP, residues 12 14 15 18 19 LWHVM (Escherichia coli, UniProt P23836); Sort-seq, item: YFP reporter; E. coli; PhoQ-PhoP variant library, together with: 10 µM Mg2+; baseline: high Mg2+ state, higher = stronger signaling).

A few entries again (mixed results):
`PhoQ, residues 284 288 289 292 302 303 GANMMA` has a fold induction of 4.06 (PhoP, residues 12 14 15 18 19 LWHVM (Escherichia coli, UniProt P23836); Sort-seq, item: YFP reporter; E. coli; PhoQ-PhoP variant library, together with: 10 µM Mg2+; baseline: high Mg2+ state, higher = stronger signaling).
